Assay results of several laboratories.
A part holds a random share of what one study measured. Values joined by “and” are separate records of one study, mostly repeats; a detail may differ.
Sequence of UniProt O43293 (whole entry, looked up): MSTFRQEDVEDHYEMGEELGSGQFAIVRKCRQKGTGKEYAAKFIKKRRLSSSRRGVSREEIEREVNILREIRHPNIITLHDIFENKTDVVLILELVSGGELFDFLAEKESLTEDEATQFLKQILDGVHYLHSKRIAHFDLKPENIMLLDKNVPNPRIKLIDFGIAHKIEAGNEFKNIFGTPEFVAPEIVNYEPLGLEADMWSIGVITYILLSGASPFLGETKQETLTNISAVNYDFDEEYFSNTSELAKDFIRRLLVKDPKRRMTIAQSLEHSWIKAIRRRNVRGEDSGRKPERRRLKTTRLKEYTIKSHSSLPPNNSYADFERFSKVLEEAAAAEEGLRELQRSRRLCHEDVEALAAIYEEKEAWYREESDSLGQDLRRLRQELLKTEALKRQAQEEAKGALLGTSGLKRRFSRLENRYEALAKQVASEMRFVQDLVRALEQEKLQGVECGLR
Sequence of UniProt P00519 (whole entry, looked up): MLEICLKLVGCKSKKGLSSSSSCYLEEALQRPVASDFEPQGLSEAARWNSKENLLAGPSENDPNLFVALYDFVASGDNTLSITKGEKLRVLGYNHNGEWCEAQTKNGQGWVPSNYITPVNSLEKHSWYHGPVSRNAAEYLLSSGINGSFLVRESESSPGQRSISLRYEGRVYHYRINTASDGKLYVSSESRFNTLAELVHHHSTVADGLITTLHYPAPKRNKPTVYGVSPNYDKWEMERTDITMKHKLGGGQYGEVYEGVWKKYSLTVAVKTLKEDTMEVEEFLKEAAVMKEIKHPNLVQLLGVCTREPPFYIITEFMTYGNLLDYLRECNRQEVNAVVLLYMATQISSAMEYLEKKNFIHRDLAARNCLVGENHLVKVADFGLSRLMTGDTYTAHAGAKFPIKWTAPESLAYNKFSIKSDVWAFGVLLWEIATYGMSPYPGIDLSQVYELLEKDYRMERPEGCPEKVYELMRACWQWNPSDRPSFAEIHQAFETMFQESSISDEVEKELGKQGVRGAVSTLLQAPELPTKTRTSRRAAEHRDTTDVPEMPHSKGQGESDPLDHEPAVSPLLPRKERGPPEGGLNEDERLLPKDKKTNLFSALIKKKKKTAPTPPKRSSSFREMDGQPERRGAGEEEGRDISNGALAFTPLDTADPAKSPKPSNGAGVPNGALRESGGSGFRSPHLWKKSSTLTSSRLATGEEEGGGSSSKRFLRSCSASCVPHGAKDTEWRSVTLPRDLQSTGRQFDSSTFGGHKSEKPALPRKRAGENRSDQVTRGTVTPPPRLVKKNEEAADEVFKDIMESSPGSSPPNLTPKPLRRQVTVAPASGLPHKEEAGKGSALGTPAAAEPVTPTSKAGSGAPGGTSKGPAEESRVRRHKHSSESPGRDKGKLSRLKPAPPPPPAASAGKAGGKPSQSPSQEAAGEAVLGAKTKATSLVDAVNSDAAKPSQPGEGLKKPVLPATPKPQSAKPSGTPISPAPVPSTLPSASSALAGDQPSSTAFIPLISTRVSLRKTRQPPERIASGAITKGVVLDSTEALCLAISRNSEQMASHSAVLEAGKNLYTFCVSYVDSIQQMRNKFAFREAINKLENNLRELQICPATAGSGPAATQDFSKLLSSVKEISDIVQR
Sequence of UniProt Q13153 (whole entry, looked up): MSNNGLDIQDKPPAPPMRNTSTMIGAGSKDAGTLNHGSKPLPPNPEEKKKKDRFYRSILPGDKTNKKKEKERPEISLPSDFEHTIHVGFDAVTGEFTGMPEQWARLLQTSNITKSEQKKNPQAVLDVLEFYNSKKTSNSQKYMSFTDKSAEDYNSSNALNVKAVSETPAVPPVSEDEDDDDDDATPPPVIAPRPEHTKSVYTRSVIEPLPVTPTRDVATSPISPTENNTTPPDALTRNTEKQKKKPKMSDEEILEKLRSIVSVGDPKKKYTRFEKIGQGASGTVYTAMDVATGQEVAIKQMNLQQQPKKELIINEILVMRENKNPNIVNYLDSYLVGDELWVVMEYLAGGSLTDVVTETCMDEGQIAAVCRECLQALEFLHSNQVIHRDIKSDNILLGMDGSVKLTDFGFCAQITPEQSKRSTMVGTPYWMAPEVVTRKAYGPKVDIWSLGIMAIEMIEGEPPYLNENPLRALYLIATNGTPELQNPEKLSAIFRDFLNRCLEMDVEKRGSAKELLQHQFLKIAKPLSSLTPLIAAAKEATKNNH
Sequence of UniProt Q13554 (whole entry, looked up): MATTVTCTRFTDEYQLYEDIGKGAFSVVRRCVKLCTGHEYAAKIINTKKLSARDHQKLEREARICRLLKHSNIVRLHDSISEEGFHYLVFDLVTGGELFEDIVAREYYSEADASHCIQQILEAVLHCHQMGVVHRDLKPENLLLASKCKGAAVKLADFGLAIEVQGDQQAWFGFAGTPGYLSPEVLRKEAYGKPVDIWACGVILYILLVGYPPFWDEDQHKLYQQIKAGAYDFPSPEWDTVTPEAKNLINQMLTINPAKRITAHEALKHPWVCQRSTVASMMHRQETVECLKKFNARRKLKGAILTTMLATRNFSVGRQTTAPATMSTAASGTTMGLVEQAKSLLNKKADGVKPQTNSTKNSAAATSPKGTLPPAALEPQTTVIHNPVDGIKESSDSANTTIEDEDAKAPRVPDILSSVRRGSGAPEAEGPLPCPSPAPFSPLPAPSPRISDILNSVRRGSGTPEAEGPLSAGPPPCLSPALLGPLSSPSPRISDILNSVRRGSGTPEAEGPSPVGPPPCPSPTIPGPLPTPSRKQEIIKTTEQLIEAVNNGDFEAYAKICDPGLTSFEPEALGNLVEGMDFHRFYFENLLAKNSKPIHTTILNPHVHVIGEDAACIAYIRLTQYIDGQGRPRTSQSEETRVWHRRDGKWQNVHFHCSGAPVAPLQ
Sequence of UniProt Q8NEB9 (whole entry, looked up): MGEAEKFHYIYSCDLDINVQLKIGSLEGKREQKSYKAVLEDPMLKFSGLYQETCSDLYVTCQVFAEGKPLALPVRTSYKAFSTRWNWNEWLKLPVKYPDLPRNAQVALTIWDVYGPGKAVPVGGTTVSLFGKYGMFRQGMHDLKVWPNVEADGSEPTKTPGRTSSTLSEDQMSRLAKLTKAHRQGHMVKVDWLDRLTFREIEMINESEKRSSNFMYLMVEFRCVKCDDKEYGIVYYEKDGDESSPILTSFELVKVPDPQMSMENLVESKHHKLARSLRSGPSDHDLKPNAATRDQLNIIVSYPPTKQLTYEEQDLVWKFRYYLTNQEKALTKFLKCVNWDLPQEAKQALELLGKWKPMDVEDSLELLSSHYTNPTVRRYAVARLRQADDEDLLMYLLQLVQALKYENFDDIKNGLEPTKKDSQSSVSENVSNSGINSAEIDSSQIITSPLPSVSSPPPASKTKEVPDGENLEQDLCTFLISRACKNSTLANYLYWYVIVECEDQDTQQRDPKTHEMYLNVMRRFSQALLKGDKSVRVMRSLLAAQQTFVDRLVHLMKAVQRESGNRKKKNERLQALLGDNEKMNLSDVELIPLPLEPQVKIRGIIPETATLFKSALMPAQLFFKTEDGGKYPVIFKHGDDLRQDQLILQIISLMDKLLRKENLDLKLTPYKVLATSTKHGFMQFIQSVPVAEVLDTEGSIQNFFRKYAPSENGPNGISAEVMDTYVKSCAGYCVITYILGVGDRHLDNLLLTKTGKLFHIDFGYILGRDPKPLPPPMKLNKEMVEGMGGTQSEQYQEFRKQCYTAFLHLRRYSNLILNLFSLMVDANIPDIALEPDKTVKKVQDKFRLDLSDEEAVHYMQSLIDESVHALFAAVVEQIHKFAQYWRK
Sequence of UniProt Q9HC98 (whole entry, looked up): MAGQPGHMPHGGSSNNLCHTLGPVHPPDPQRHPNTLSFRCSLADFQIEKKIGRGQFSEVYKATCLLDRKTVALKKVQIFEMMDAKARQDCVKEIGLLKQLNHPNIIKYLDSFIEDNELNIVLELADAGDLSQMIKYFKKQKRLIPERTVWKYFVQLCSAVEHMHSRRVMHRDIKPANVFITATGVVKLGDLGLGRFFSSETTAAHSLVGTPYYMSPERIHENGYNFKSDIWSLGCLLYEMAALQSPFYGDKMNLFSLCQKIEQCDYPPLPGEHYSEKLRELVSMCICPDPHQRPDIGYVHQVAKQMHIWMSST
Sequence of UniProt P52564 (whole entry, looked up): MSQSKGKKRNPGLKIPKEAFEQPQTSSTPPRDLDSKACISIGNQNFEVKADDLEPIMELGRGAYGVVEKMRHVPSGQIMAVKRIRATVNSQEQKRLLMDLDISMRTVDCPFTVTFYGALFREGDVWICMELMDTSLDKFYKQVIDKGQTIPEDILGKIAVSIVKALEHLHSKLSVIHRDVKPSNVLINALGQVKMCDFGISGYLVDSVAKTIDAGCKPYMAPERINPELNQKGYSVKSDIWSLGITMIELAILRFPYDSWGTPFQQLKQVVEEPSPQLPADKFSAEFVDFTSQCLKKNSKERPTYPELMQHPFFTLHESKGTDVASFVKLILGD

Study 1 — species: human; matrix: microsomes or S9; tested at: 2 µM; time: 0.5 h; measurement: remaining compound
Oc1ccc2c(c1)oc1c(C3=Cc4ccccc4OC3)c3c[nH]nc3nc12: 5.67%
COCCOC(=O)c1c(C)[nH]c(C(=O)N2CCOc3ccc(S(C)(=O)=O)cc32)c1C: > 99%
CCc1csc(Cn2cc(C(C)c3ccccc3)nn2)n1 (stereo not drawn): 22.1%
COc1ccc(OC)c(NC(=O)c2cc3cccc4c3n2CC(C)S4)c1 (stereo not drawn): 33.4%
O=C(Nc1c(O)c(Cl)cc(Cl)c1Cl)c1nc(=O)[nH][nH]1: 12.8%
CCC1CN(C(=O)c2cc(S(=O)(=O)N3CCOCC3)cn2C)c2cc(Cl)ccc2O1 (stereo not drawn): 6.86%
CC(C)n1/c(=N/C(=O)c2ccccc2Br)c(C#N)cc2c(=O)n3ccccc3cc21: 18.3%
CC(C)Cn1ccnc1NC(=O)c1cnc(C(C)(C)C)s1: 50.6%

Study 2 — cell line: mouse MPNST tumor cells; method: high-content nuclear imaging; refers to: cell number; tested at: 10 µM; time: 12 h; notes: mean of 2 replicates; baseline: plate mean; reading: higher = more cells; measurement: nuclei count
O=S(=O)(NC1CCCCC1)c1ccc2c(c1)C(=NO)c1cc(S(=O)(=O)NC3CCCCC3)ccc1-2: -3.87 z-score
CC(CN1c2ccccc2Sc2ccccc21)N(C)C (stereo not drawn): 2.27 z-score
c1ccc(CC2=NCCN2)cc1: -0.0553 z-score and 0.85 z-score
Cc1ncc(Cl)cc1NCc1ccc(C(=O)N[C@@H](CC2CCCC2)C(=O)NC2CC2)s1: 0.199 z-score
CC(C)NC[C@H](O)COc1cccc2ccccc12: 2.71 z-score
COC1(C2=NCCN2)COc2ccccc2O1 (stereo not drawn): 0.997 z-score
CC(=O)OCC(=O)[C@@]12N=C(C)O[C@@H]1C[C@H]1[C@@H]3CCC4=CC(=O)C=C[C@]4(C)[C@H]3[C@@H](O)C[C@@]12C: 2.43 z-score
Clc1ccc(NN=C(c2ccccc2)c2ccccn2)nc1: -4.29 z-score

Study 3 — tested at: 1 µM; measurement: remaining binding
Structure (SMILES): Cc1nccc(COC(=O)N2C[C@@H]3[C@@H](CNC(=O)c4ccc5[nH]nnc5c4)[C@@H]3C2)n1
DSTYK (Homo sapiens, UniProt Q6XUX3); cell-free assay, competition with immobilised ligand: 69%
IRAK3 (Homo sapiens, UniProt Q9Y616); cell-free assay, competition with immobilised ligand: 100%
HIPK3 (Homo sapiens, UniProt Q9H422); cell-free assay, competition with immobilised ligand: 76%
DAPK3 (Homo sapiens, UniProt O43293); cell-free assay, competition with immobilised ligand: 92%
NEK6 (Homo sapiens, UniProt Q9HC98); cell-free assay, competition with immobilised ligand: 100%
LTK (Homo sapiens, UniProt P29376); cell-free assay, competition with immobilised ligand: 93%
ALK (Homo sapiens, UniProt Q9UM73, C1156Y); cell-free assay, competition with immobilised ligand: 76%
Tyrosine-protein kinase JAK3, JH1 (JAK3, Homo sapiens, UniProt P52333); cell-free assay, competition with immobilised ligand: 96%
CSNK1E (Homo sapiens, UniProt P49674); cell-free assay, competition with immobilised ligand: 100%
Tyrosine-protein kinase ABL1, phosphorylated (ABL1, Homo sapiens, UniProt P00519); cell-free assay, competition with immobilised ligand: 95%
CAMK1 (Homo sapiens, UniProt Q14012); cell-free assay, competition with immobilised ligand: 93%
MAP2K6 (Homo sapiens, UniProt P52564); cell-free assay, competition with immobilised ligand: 100%
PRKG2 (Homo sapiens, UniProt Q13237); cell-free assay, competition with immobilised ligand: 100%
PIK3C3 (Homo sapiens, UniProt Q8NEB9); cell-free assay, competition with immobilised ligand: 94%
INSRR (Homo sapiens, UniProt P14616); cell-free assay, competition with immobilised ligand: 100%
SIK1 (Homo sapiens, UniProt P57059); competition binding: 98%
PAK1 (Homo sapiens, UniProt Q13153); cell-free assay, competition with immobilised ligand: 92%
FLT3 (Homo sapiens, UniProt P36888, D835Y); cell-free assay, competition with immobilised ligand: 100%
CAMK2B (Homo sapiens, UniProt Q13554); cell-free assay, competition with immobilised ligand: 90%
NEK4 (Homo sapiens, UniProt P51957); cell-free assay, competition with immobilised ligand: 79%

Study 4 — effect on: enzyme activity; mode: inhibitor; tested at: 0.5 µM; baseline: control; measurement: remaining activity
Target: Casein kinase I isoform gamma-1 (CSNK1G1, Homo sapiens, UniProt Q9HCP0)
Sequence of UniProt Q9HCP0 (whole entry, looked up): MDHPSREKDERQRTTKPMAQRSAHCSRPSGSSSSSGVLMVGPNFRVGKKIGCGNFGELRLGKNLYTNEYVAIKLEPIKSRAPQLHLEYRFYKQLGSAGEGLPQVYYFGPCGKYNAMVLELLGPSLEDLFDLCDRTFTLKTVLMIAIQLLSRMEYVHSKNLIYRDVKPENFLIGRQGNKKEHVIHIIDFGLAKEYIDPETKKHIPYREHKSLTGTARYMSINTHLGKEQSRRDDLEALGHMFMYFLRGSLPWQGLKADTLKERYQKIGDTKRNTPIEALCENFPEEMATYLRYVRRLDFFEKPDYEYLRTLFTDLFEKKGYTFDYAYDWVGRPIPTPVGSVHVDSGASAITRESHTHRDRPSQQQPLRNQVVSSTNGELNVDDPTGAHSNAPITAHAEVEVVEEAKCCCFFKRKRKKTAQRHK
Oc1cccc(-c2nc(N3CCOCC3)c3oc4ncccc4c3n2)c1: 89.4%
CCCNC(=O)Nc1ccc(Oc2ncnc3cc(OC)c(OC)cc23)cc1Cl: 97.1%
Cc1cc(Nc2cc(N3CCN(C)CC3)nc(Sc3ccc(NC(=O)C4CC4)cc3)n2)[nH]n1: 99.1%
O=c1cc(N2CCOCC2)oc2c(-c3ccccc3)cccc12: 104%
O=C1NC(=O)c2c1c1c3ccccc3[nH]c1c1[nH]c3cc(Br)ccc3c21: 96.2%
Cc1ccc(S(=O)(=O)/C=C/C#N)cc1: 101%
O=C1NC(=O)c2c1c1c3ccccc3[nH]c1n1cncc21: 68.4%
COc1ccc(COc2ccc(Cc3cnc(N)nc3N)cc2OC)cc1: 92.7%
N#Cc1cnc2cnc(NCc3cccnc3)cc2c1Nc1ccc(F)c(Cl)c1: 87%

Excerpt of the above (study 3):
SIK1 (Homo sapiens, UniProt P57059); competition binding: 98%
FLT3 (Homo sapiens, UniProt P36888, D835Y); cell-free assay, competition with immobilised ligand: 100%
CAMK1 (Homo sapiens, UniProt Q14012); cell-free assay, competition with immobilised ligand: 93%
ALK (Homo sapiens, UniProt Q9UM73, C1156Y); cell-free assay, competition with immobilised ligand: 76%
